Measured values of several laboratories.
± marks the error that the study gave.
Chain of UniProt O00311 (whole entry, looked up): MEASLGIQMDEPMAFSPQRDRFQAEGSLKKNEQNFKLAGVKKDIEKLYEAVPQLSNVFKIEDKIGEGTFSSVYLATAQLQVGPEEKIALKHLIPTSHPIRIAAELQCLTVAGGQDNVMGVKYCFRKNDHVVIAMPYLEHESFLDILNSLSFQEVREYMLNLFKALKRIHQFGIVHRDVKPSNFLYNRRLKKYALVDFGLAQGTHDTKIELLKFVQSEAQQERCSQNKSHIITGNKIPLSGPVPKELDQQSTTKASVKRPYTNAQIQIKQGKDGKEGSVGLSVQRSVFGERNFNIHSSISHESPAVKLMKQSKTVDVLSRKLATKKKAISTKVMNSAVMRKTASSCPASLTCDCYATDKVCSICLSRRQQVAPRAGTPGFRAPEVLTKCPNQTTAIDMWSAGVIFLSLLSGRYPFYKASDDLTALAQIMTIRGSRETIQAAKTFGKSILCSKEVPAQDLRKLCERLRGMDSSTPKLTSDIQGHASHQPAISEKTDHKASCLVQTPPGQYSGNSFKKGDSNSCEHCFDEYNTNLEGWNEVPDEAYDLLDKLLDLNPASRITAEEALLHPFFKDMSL

SMILES	tested on	test	test system	setting	how to read	endpoint	value
C[C@H]1CN(c2n[nH]c3nc(N[C@H]4CC[C@H](NS(=O)(=O)CCC(F)(F)F)CC4)ncc23)CCO1	Cell division cycle 7-related protein kinase (CDC7, Homo sapiens, UniProt O00311)	inhibitor, Kinobeads competition profiling	–	0.16 µM	reference: vehicle	relative abundance	1.03
C[C@@H]1N=C(c2ccccc2F)c2cc(Br)ccc2-n2cnc(C(=O)O)c21	–	–	mice, blood	oral gavage, 100 mg/kg	–	half-life	47.8 min
N#C/N=C1\SCCN1Cc1ccc(Cl)nc1	–	–	soil	28 days, nominal 10	–	recovery	1.9%
COc1cc2c(Oc3ccc4[nH]c(C)cc4c3F)ccnc2cc1OCC1(N)CC1	–	–	paediatric refractory sarcoma patients	12 mg	–	grade 3 QTc prolongation	0%
CC(C)CC(=O)OC[C@H]1O[C@@](C#N)(c2ccc3c(N)ncnn23)[C@H](O)[C@@H]1O	–	–	monkey plasma	90 µM	–	fraction bound	0.746
CCCC(CCC)NC(=O)c1ccc2c(c1)OCO2	–	–	Swiss albino CD-1 mice, male, bone marrow	intraperitoneal, 700 mg/kg, 24 h	–	micronucleated PCEs	0.1%
COc1cc(C2C3=C(COC3=O)N(CCO)c3cc4c(cc32)CCC4)cc(OC)c1OC (stereo not drawn)	–	–	female C57BL/6 mice	intraperitoneal, 400 mg/kg, 0 h, single dose, mean	–	body weight	23.3 g
CC(=O)c1c(C)c2cnc(Nc3ccc(C4CCN(CCS(C)(=O)=O)CC4)cn3)nc2n(C2CCCC2)c1=O	–	–	human, plasma	oral, 75 mg twice daily, day 1, single dose, added: letrozole	–	Tmax	1.44 h
CCn1c2ccccc2c2cc(CN3CCN(Cc4cccc(Cl)c4)CC3)ccc21	Vero-E6	CellTiter-Glo ATP	–	72 h, second round 5-point	reference: DMSO 0%, hyamine -100%, more negative, more toxic	maximum response	0.058%
O=c1ccc2ncc(=O)n3c2n1C[C@H]3CN1CCC(NCc2cc3c(cn2)OCCC3)CC1	–	–	healthy human volunteers	oral, 1500 mg, single dose alone, geometric mean	–	renal clearance	275 mL/min
Clc1ccc(-c2ccccc2)cc1	–	–	rat Sprague-Dawley female, serum	inhalation, 23 µg/rat, 1 h	–	serum triglycerides	41 ± 4 mg/dL
Cc1cccc(Cn2nc(C3CC3)c3c(NC(=O)c4cnc5cc(OCCN6CCN(C)CC6)ccn45)cccc32)n1	–	CTCAE v4.03, item: ALT increased	platinum-resistant ovarian cancer patients	oral, dose not given, added: pembrolizumab IV every 3 weeks	–	all-cause adverse events	36.4%
COc1ncccc1-c1cnn2ccc(N3CCN(C(=O)OC(C)C)CC3)nc12	–	–	rat, CCI mechanical hyperalgesia model, brain	oral, 3 mg/kg, 210 min	–	drug concentration	1400 nM
O=C(Nc1ccccc1)C1CCN(C(=O)Oc2cccnc2)CC1	–	–	healthy women	oral, 60 mg, 7 days	–	Psychiatric disorders adverse events	7.1%
CC(C)[C@@H]1NC(=O)CNC(=O)[C@H](CC(N)=O)NC(=O)[C@H](CCCNC(=N)N)NC(=O)[C@H](Cc2ccc(O)cc2)NC(=O)[C@H](C(C)C)NC(=O)[C@@H](NC(=O)[C@@H](NC(=O)[C@H](CC(N)=O)NC(=O)[C@H](Cc2c[nH]c3ccccc23)NC(=O)[C@H](C)NC(=O)[C@H](Cc2ccccc2)NC(=O)CN)C(C)C)CSSC[C@@H](C(=O)N[C@@H](Cc2cnc[nH]2)C(=O)N[C@@H](CCCNC(=N)N)C(=O)N[C@@H](CCCNC(=N)N)C(=O)N[C@@H](C)C(=O)N[C@@H](CC(N)=O)C(N)=O)NC(=O)[C@H](C(C)C)NC(=O)[C@H](CCCNC(=N)N)NC1=O	–	–	ICR mouse	ip, 10 mg/kg	direction not given	breathing score	0
C[C@]1(O)C[C@@](N)(c2ccc(-c3nc4n(c3-c3ccccc3)COc3ccncc3-4)cc2)C1	–	–	human, advanced or metastatic solid tumours	28 mg intermittent, phase I dose escalation	–	patients with AST increased	0%
C[C@]12CC[C@@H]3c4ccc(O)cc4CC[C@H]3[C@@H]1CCC2=O	–	ultrafiltration	cow milk whey	200 nM nominal in whole milk	–	final permeate concentration	3.3 nM
CO[C@H]1C[C@@H]2CC[C@@H](C)[C@@](O)(O2)C(=O)C(=O)N2CCCC[C@H]2C(=O)O[C@H]([C@H](C)C[C@@H]2CC[C@@H](OC(=O)NCCOCCOCCOCCOCCOCCOCCOCCOCCC(=O)N3CCc4cc(Cn5nc(-c6ccc7oc(N)nc7c6)c6c(N)ncnc65)ccc4C3)[C@H](OC)C2)C[C@@H](O)[C@H](C)/C=C(\C)[C@@H](O)[C@@H](OC)C(=O)[C@H](C)C[C@H](C)/C=C/C=C/C=C/1C	–	–	patients with advanced solid tumours	intravenous, dose not given, any grade	–	Mucositis AE leading to dose reduction	5.3%

SMILES	tested on	test	test system	setting	how to read	endpoint	value
Cn1cncc1-c1c(F)cncc1NC(=O)c1c(N)nn2cc(F)cnc12	–	–	human patients	oral, dose not given, 21 days, all doses	–	anaemia DLT	19%
Cc1ccc(N=Nc2ccc3[nH]cc(CCN(C)C)c3c2)cc1	–	light irradiation	solution	added: light 530 nm	–	trans isomer at photostationary state	87%
C[C@@H](NC(=O)N1C(=O)[C@H](Cc2ccnc(N)c2)[C@H]1C(=O)O)C1CCCCC1	–	–	healthy adult Chinese volunteers	continuous intravenous infusion, 1.0 mg/kg/h, 5-day infusion, CTCAE 5.0 grading	–	incidence of grade 3 or higher AEs	0%
CNC(=O)c1cc(Cl)c(OC(C)(C)C(=O)O)cc1OC[C@@H](O)CN1CCC2(CC1)Cc1cc(Cl)ccc1O2	–	–	human	inhaled	–	lung deposited fraction	0.66
N[C@@H]1c2ccccc2OC12CCN(c1cnc3c(N4CCCc5ncccc54)n[nH]c3n1)CC2	–	–	patients advanced metastatic solid tumours	oral, 60 mg once daily, RP2D expansion phase	–	incidence of any TEAE	100%
CCN1[C@@H](C(=O)NC23CCC(C(=O)O)(CC2)CC3)[C@H](c2cccc(Cl)c2F)[C@]2(C(=O)Nc3cc(Cl)ccc32)C12CCCCC2	–	–	patients with advanced solid tumours	oral, 100 mg	–	Thrombocytopenia incidence	36.4%
C[C@H]1C[C@@H](N2C(=N)N[C@](C)(c3cccc(NC(=O)c4cccc(C#N)c4)c3Cl)CC2=O)CCO1	–	–	rat	250 mg/kg, every other day	–	triglycerides change	-28%
CC(C)C[C@H](NC(=O)[C@H](CCCCN)NC(=O)OCC1c2ccccc2-c2ccccc21)C(=O)N[C@H](C(=O)N[C@@H](Cc1ccccc1)C(=O)N[C@@H](Cc1ccccc1)C(=O)N[C@@H](CCCCN)C(=O)NCC(=O)N[C@@H](Cc1ccccc1)C(=O)N[C@@H](C)C(=O)N[C@@H](Cc1c[nH]c2ccccc12)C(=O)N[C@@H](CC(N)=O)C(=O)N[C@H](C(=O)N[C@H]1CSSC[C@@H](C(=O)N[C@@H](Cc2c[nH]cn2)C(=O)N[C@@H](CCCNC(=N)N)C(=O)N[C@@H](CCCNC(=N)N)C(=O)N[C@@H](C)C(=O)N[C@@H](CC(N)=O)C(N)=O)NC(=O)[C@H](C(C)C)NC(=O)[C@H](CCCNC(=N)N)NC(=O)[C@H](C(C)C)NC(=O)CNC(=O)[C@H](CC(N)=O)NC(=O)[C@H](CCCNC(=N)N)NC(=O)[C@H](Cc2ccc(O)cc2)NC(=O)[C@H](C(C)C)NC1=O)C(C)C)C(C)C	–	circular dichroism, item: Parallel	PBS	80 µM, pH 7.4	–	secondary structure content	3.25%
CC(C)=CC1C(C(=O)OC(C#N)c2cccc(Oc3ccccc3)c2)C1(C)C (stereo not drawn)	–	item: CYP2B6	human, age 1 year	–	–	enzyme contribution to clearance	0.88%
Cn1cc(-c2nc(N[C@@H]3CCCC[C@@H]3N)c(F)c3c2C(=O)NC3)cn1	–	item: Hematuria	patients with relapsed or refractory AML	oral, 60 mg twice daily	–	hemorrhagic adverse events	13%
CCCCCCCCCCCCCCCC(=O)N[C@@H](CCC(=O)NCCCC[C@H](NC(=O)[C@H](CC(=O)O)NC(=O)[C@H](CO)NC(=O)[C@@H](NC(=O)[C@H](Cc1ccccc1)NC(=O)[C@@H](NC(=O)CNC(=O)[C@H](CCC(N)=O)NC(=O)[C@H](CO)NC(=O)[C@@H](N)Cc1c[nH]cn1)[C@@H](C)O)[C@@H](C)O)C(=O)N[C@@H](CO)C(=O)N[C@@H](CCC(=O)O)C(=O)N[C@@H](Cc1ccc(O)cc1)C(=O)N[C@@H](CC(C)C)C(=O)N[C@@H](CC(=O)O)C(=O)N[C@@H](CO)C(=O)N[C@@H](CCC(=O)O)C(=O)N[C@@H](CCCNC(=N)N)C(=O)N[C@@H](C)C(=O)N[C@@H](CCCNC(=N)N)C(=O)N[C@@H](CC(=O)O)C(=O)N[C@@H](Cc1ccccc1)C(=O)N[C@H](C(=O)N[C@@H](C)C(=O)N[C@@H](Cc1c[nH]c2ccccc12)C(=O)N[C@@H](CC(C)C)C(=O)N[C@@H](CCC(=O)O)C(=O)N[C@@H](C)C(=O)NCC(=O)NCC(=O)O)C(C)C)C(=O)O	–	–	human, CrCl ≥ 90 mL/min	sc, 100 µg single dose	–	atrial fibrillation	0%
C=CCNc1c(O)cc2c(O)c1C[C@@H](C)C[C@H](OC)[C@H](O)[C@@H](C)/C=C(\C)[C@H](OC(N)=O)[C@@H](OC)/C=C\C=C(/C)C(=O)N2	–	–	unresectable or metastatic STS, GIST, other	intravenous, 400 mg/m^2	–	patients with nausea TEAE	53%
O=S(=O)(Nc1ccccc1)c1ccc(NC(=S)Nc2ccccc2)cc1	–	–	female mice, spleen	oral, 80 mg/kg daily 14 days	reference: body weight	relative organ weight	0.42%
CCCCN(CCCNC(=O)c1cc(Nc2ccc(OC)c(OC)c2)nc2ccccc12)Cc1ccccc1	Vero-E6	CellTiter-Glo ATP	–	72 h, retest 8-point duplicates	reference: DMSO 0%, hyamine -100%, more negative, more toxic	maximum response	-3.93%
Fc1ccc([C@@H]2CCNC[C@H]2COc2ccc3c(c2)OCO3)cc1	–	item: Dyspepsia	healthy volunteers	oral, dose not given, given -1 h relative to LSD, added: LSD	direction not given	List of Complaints score	0 score
CCc1ccc(CC/C=C/c2ccc3c(c2)C(=O)CC3)cc1	–	–	Sprague-Dawley rat, male, serum	oral, 120 mg/kg/day, 14 days	–	sodium	143 mM
CCCSc1ccc2nc(NC(=O)OC)[nH]c2c1	–	–	mouse, blood	oral, 50 mg/kg, tolerability, mean	–	eosinophils	6.54%
C[C@]1(CO)Cc2ncn(-c3ccc(C#N)c(Cl)c3)c2C(=O)O1	–	–	human	40 mg multiple doses, fasted	–	subjects with drug-related fatigue	0%

Some of these lines once more:
SMILES	tested on	test	test system	setting	how to read	endpoint	value
C[C@@H]1N=C(c2ccccc2F)c2cc(Br)ccc2-n2cnc(C(=O)O)c21	–	–	mice, blood	oral gavage, 100 mg/kg	–	half-life	47.8 min
O=S(=O)(Nc1ccccc1)c1ccc(NC(=S)Nc2ccccc2)cc1	–	–	female mice, spleen	oral, 80 mg/kg daily 14 days	reference: body weight	relative organ weight	0.42%
CC(C)CC(=O)OC[C@H]1O[C@@](C#N)(c2ccc3c(N)ncnn23)[C@H](O)[C@@H]1O	–	–	monkey plasma	90 µM	–	fraction bound	0.746
C=CCNc1c(O)cc2c(O)c1C[C@@H](C)C[C@H](OC)[C@H](O)[C@@H](C)/C=C(\C)[C@H](OC(N)=O)[C@@H](OC)/C=C\C=C(/C)C(=O)N2	–	–	unresectable or metastatic STS, GIST, other	intravenous, 400 mg/m^2	–	patients with nausea TEAE	53%
CC(C)[C@@H]1NC(=O)CNC(=O)[C@H](CC(N)=O)NC(=O)[C@H](CCCNC(=N)N)NC(=O)[C@H](Cc2ccc(O)cc2)NC(=O)[C@H](C(C)C)NC(=O)[C@@H](NC(=O)[C@@H](NC(=O)[C@H](CC(N)=O)NC(=O)[C@H](Cc2c[nH]c3ccccc23)NC(=O)[C@H](C)NC(=O)[C@H](Cc2ccccc2)NC(=O)CN)C(C)C)CSSC[C@@H](C(=O)N[C@@H](Cc2cnc[nH]2)C(=O)N[C@@H](CCCNC(=N)N)C(=O)N[C@@H](CCCNC(=N)N)C(=O)N[C@@H](C)C(=O)N[C@@H](CC(N)=O)C(N)=O)NC(=O)[C@H](C(C)C)NC(=O)[C@H](CCCNC(=N)N)NC1=O	–	–	ICR mouse	ip, 10 mg/kg	direction not given	breathing score	0
O=c1ccc2ncc(=O)n3c2n1C[C@H]3CN1CCC(NCc2cc3c(cn2)OCCC3)CC1	–	–	healthy human volunteers	oral, 1500 mg, single dose alone, geometric mean	–	renal clearance	275 mL/min
